Published values from different studies.
Protocols differ between the studies behind these lines. ± gives the spread as reported.
USP20 ZnF-UBD domain: Ubiquitin carboxyl-terminal hydrolase 20, ZnF-UBD domain (USP20, Homo sapiens, UniProt Q9Y2K6)
Chain of UniProt Q9Y2K6 (whole entry, looked up): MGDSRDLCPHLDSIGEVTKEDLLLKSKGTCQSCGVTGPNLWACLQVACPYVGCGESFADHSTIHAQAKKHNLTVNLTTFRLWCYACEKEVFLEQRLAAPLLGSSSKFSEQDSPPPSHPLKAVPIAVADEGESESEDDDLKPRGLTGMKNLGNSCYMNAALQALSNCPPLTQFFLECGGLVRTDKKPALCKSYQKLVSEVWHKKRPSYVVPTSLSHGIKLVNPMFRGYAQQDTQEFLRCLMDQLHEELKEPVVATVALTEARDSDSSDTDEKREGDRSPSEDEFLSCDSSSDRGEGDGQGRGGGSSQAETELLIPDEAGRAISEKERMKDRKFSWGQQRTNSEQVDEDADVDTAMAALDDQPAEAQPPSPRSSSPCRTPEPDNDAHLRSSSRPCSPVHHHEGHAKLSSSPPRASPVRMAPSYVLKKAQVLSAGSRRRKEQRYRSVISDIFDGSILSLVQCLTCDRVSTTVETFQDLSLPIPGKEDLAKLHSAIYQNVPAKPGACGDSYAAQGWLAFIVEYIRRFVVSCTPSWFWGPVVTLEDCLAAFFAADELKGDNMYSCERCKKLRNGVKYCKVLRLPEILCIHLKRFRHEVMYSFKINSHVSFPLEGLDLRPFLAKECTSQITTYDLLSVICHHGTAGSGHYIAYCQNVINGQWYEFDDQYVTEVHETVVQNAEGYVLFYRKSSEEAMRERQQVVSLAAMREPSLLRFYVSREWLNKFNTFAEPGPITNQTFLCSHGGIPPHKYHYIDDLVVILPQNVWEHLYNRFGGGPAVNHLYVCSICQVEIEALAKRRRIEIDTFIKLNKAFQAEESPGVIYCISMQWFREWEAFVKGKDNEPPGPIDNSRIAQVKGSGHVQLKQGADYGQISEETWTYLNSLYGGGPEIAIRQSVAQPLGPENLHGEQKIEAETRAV
Ubiquitin carboxyl-terminal hydrolase 39 ZnF-UBD domain: Ubiquitin carboxyl-terminal hydrolase 39, ZnF-UBD domain (Homo sapiens, UniProt Q53GS9)
Chain of UniProt Q53GS9 (whole entry, looked up): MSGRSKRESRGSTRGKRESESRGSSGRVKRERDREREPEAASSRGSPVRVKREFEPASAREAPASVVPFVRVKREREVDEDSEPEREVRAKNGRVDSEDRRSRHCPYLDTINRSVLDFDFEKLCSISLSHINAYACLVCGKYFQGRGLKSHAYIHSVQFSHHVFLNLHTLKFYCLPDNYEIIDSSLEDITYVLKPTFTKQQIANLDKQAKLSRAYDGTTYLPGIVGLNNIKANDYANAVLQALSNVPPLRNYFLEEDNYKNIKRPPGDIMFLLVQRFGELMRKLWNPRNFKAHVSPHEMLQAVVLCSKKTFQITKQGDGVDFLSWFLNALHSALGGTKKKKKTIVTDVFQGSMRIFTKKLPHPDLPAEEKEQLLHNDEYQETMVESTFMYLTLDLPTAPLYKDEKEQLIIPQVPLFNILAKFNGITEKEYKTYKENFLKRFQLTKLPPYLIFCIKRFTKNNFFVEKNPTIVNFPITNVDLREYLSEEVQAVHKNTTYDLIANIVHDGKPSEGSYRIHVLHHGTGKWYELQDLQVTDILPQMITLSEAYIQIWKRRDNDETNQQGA
CYP2A6: Cytochrome P450 2A6 (CYP2A6, Homo sapiens, UniProt P11509)
Chain of UniProt P11509 (whole entry, looked up): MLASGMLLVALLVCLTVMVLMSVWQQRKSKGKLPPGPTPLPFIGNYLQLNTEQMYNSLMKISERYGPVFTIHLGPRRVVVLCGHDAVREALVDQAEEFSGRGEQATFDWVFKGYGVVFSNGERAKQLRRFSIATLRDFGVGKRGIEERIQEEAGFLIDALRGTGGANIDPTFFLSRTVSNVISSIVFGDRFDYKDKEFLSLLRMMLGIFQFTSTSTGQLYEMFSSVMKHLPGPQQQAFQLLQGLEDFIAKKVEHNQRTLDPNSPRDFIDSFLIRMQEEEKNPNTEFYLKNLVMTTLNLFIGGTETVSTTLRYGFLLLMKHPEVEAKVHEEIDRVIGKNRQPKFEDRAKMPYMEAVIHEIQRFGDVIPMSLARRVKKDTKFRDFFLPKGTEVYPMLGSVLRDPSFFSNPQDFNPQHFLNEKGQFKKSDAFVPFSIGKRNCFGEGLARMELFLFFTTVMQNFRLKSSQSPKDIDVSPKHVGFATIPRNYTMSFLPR
Chain of UniProt Q13572 (whole entry, looked up): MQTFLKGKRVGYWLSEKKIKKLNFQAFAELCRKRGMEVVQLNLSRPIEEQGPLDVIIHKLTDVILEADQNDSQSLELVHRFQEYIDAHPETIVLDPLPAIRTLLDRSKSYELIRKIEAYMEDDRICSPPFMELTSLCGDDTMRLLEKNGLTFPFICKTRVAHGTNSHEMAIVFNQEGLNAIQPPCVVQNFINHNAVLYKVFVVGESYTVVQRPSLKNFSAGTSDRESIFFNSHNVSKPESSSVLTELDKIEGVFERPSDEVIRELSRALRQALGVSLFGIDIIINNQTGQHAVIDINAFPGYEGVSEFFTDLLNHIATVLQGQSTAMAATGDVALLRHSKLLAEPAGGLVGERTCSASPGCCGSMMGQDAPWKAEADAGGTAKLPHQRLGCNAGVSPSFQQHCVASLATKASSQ
Chain of UniProt P00915 (whole entry, looked up): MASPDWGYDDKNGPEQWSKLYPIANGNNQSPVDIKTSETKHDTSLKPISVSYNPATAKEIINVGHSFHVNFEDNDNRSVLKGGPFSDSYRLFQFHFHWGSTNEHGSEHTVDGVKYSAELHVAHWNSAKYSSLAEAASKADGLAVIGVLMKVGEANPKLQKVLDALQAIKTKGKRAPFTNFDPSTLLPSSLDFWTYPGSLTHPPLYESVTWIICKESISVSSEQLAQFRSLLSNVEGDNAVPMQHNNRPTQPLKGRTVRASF
Chain of UniProt O43570 (whole entry, looked up): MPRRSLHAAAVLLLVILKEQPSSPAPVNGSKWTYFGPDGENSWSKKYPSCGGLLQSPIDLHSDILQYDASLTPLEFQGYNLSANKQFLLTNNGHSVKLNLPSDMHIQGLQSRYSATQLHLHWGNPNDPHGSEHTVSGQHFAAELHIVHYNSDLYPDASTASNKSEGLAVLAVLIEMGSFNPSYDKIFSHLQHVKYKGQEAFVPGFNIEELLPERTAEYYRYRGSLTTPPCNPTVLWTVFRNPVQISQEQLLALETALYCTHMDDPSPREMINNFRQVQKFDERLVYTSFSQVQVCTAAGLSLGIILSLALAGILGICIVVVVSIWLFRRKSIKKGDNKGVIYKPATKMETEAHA
Chain of UniProt O75694 (whole entry, looked up): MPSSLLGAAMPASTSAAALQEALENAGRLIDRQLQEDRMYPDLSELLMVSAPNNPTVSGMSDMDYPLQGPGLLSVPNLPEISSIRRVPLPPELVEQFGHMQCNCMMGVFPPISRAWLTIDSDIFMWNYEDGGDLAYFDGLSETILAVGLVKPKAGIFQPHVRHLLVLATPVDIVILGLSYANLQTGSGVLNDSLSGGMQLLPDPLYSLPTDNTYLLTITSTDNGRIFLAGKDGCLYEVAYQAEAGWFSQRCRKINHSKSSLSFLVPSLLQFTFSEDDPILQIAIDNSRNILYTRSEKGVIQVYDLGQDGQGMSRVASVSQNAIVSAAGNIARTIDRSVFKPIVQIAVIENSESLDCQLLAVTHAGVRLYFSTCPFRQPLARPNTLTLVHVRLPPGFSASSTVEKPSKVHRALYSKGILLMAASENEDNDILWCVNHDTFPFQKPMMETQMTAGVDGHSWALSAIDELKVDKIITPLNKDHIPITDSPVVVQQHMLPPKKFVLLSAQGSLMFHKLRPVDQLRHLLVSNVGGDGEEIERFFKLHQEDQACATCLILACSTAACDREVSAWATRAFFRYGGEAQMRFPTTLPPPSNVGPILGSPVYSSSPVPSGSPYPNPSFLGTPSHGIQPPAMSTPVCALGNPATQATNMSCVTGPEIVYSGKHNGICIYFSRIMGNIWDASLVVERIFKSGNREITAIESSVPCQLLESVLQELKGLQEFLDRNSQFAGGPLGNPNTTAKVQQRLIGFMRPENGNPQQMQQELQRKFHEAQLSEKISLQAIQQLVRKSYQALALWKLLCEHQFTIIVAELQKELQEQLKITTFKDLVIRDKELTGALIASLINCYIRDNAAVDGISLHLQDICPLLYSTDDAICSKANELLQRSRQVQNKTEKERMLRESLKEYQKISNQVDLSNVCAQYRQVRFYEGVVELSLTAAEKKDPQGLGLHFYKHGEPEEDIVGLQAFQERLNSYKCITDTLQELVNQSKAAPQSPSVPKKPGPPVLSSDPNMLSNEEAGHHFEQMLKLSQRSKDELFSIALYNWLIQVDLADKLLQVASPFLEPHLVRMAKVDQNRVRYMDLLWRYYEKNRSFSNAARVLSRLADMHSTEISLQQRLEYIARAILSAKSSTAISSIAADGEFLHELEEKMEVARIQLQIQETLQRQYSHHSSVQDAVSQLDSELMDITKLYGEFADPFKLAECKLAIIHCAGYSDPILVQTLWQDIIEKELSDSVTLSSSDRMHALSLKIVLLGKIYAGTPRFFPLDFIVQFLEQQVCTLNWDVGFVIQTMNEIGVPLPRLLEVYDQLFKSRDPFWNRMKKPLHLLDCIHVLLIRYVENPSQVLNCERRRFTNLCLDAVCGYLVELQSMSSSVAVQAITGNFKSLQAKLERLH

NS(=O)(=O)C(F)(F)F — Kd (Carbonic anhydrase 1 (CA1, Homo sapiens, UniProt P00915); urea denaturation shift, Trp fluorescence; 10 µM, pH 6.0): 0.184 µM
O=C(O)Cn1cnc2ccccc2c1=O — Kd (USP20 ZnF-UBD domain): 835 µM
C[C@H](Cc1ccccc1)Nc1ncnc2c1ncn2[C@@H]1O[C@H](CO)[C@@H](O)[C@H]1O — Kd (adenosine A1 receptor, sheep; competition binding; striatum membranes; second site, dimer model, with: 0.009 nM [3H]DPCPX): 0.0053 ± 0.0005 µM
O=C(O)Cn1ccc2ccccc2c1=O — Kd (Ubiquitin carboxyl-terminal hydrolase 39 ZnF-UBD domain): > 1000 µM
Nc1nc(-c2ccc(Cl)c(S(N)(=O)=O)c2)cs1 — Kd (Carbonic anhydrase 12 (CA12, Homo sapiens, UniProt O43570); thermal shift; pH 7.0, 25 °C): 0.33 µM
COc1cc2c(Nc3ccc(NC(=O)c4ccccc4)cc3)ncnc2cc1OCCCN1CCOCC1 — Kd (Mast/stem cell growth factor receptor Kit (KIT, Homo sapiens, UniProt P10721); competition binding; 11-point threefold dilution): > 10 µM
O=c1ccc2ccccc2o1 — Kd (CYP2A6; binding; 20 min, pH 7.4, purified protein, 2% DMSO): 4.11 µM
COC(=O)C[C@@H]1N=C(c2ccc(Cl)cc2)c2c(sc(C(=O)NCCOCCNC(=O)C[C@@H]3N=C(c4ccc(Cl)cc4)c4c(sc(C)c4C)-n4c(C)nnc43)c2C)-n2c(C)nnc21 — Kd (Bromodomain-containing protein 3, BD2 (BRD3, Homo sapiens, UniProt Q15059)): 2.7e-06 µM
CCCCCCCC/C=C\CCCCCCCC(=O)O — Kd (uncharacterized protein (Solanum lycopersicum, UniProt A0A3Q7EJP1); binding, refers to: residue L11; 25 °C): 3 ± 1 µM
Cn1ccnc1C(O)c1ccc(F)cc1 (stereo not shown) — Kd (CYP2A6; binding; 20 min, pH 7.4, purified protein, 2% DMSO): 1380 µM
NC(=O)c1cc(-n2c(CCC(=O)O)nc3ccccc32)cs1 — Kd (Ubiquitin carboxyl-terminal hydrolase 39 ZnF-UBD domain): > 1000 µM
CC[C@H](C)[C@@H]1NC(=O)[C@H](CCCNC(=N)N)NC(=O)[C@H](CCCNC(=N)N)NC(=O)[C@H](CCCCN)NC(=O)CNC(=O)[C@H](CCCNC(=N)N)NC(=O)[C@H]([C@@H](C)O)NC(=O)[C@H](CCCNC(=N)N)NC(=O)[C@H](C(C)C)NC(=O)[C@H](CCCNC(=N)N)NC(=O)[C@@H]2CCCN2C(=O)[C@H]2CCCN2C(=O)[C@H](CCCNC(=N)N)NC(=O)[C@H](CCCNC(=N)N)NC1=O — Kd (pre-miR-21 apical loop hairpin; binding, EMSA; with: yeast tRNA 250-fold excess): 0.2 µM
Nc1ncnc2c1ncn2[C@@H]1O[C@H](COP(=O)(O)OP(=O)(O)OP(=O)(O)O)[C@@H](O)[C@H]1O — Kd (Creatine kinase U-type, mitochondrial (CKMT1A, Homo sapiens, UniProt P12532, E265Q); microscale thermophoresis; pH 8.5, E227Q mutant, with: creatine 10 mM): 4 ± 2 µM
O=C(O)CCn1nnc(-c2ccccc2)n1 — Kd (Ubiquitin carboxyl-terminal hydrolase 39 ZnF-UBD domain): > 1000 µM
Cc1ccc(S(=O)(=O)OC[C@H]2CO[C@](Cn3ccnc3)(c3ccc(Cl)cc3Cl)O2)cc1 — Kd (CYP2A6; binding; 20 min, pH 7.4, purified protein, 2% DMSO): 16.2 µM
Nc1ncnc2c1cnn2C1CCCCC1 — Kd (Inositol-tetrakisphosphate 1-kinase (Homo sapiens, UniProt Q13572); binding): 0.36 ± 0.09 µM
COc1cc(/C=C/C(=O)O)ccc1O — Kd (Nuclear pore complex protein Nup155 (Homo sapiens, UniProt O75694); binding, microscale thermophoresis; 15 min, room temperature, 0.05 % Tween-20, with: 5 nM protein): 0.0836 ± 0.00631 µM
O=C(Cn1ccnc1)c1ccc(Cl)cc1Cl — Kd (CYP2A6; binding; 20 min, pH 7.4, purified protein, 2% DMSO): 15.2 µM
O=C(O)Cc1cccnc1 — Kd (Ubiquitin carboxyl-terminal hydrolase 39 ZnF-UBD domain): 180 µM
CCCN1CCN(c2ccc(-c3cncc(Cl)c3N3CCC4(CCNC4=O)CC3)cc2)CC1 — Kd (AXIN2 human; SILAC competition; LS174T-L5 lysate): 1.05 µM
O=C(O)CCC(=O)c1ccc2c(c1)CCC(=O)N2 — Kd (USP20 ZnF-UBD domain): 821 µM
c1ccc(-c2ccc(OCCn3ccnc3)cc2)cc1 — Kd (CYP2A6; binding; 20 min, pH 7.4, purified protein, 2% DMSO): 21.8 µM
